{"data": "Published values from different studies", "F2": "Prothrombin (F2, Homo sapiens, UniProt P00734)", "AMY2": "Pancreatic alpha-amylase (AMY2, Sus scrofa, UniProt P00690)", "note": "Compare with care: the assays were run in different laboratories. Numbers after ± are the reported error.", "sequence of UniProt P00690 (whole entry, looked up)": "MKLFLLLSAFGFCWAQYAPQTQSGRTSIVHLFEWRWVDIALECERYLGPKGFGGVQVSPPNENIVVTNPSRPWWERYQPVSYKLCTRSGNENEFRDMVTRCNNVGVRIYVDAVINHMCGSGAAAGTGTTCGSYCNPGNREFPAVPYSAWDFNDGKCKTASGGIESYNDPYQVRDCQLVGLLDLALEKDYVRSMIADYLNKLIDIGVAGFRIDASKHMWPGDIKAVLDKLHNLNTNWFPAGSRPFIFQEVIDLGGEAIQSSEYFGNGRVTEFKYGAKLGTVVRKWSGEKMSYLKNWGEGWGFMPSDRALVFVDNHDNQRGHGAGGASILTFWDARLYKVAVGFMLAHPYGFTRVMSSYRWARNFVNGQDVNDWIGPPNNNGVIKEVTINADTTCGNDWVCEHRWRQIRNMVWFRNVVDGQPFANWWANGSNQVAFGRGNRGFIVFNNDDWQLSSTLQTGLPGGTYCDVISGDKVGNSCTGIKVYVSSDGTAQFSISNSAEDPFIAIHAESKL", "sequence of UniProt Q9UII6 (whole entry, looked up)": "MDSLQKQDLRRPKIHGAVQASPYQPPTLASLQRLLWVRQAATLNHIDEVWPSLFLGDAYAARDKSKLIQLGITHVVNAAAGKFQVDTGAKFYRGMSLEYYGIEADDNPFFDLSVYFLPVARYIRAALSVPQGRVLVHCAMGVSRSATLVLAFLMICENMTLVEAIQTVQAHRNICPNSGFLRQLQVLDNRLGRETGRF", "sequence of UniProt P30518 (whole entry, looked up)": "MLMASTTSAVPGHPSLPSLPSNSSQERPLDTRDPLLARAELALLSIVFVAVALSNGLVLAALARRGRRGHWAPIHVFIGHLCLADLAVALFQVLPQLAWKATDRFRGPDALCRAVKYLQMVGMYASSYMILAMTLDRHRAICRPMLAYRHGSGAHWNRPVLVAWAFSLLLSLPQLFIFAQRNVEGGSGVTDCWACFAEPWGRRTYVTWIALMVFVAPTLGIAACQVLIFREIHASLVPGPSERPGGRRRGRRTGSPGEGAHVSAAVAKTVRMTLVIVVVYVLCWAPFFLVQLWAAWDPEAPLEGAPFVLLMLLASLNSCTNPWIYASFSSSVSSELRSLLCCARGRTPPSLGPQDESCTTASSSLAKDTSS", "sequence of UniProt Q9UPE1 (whole entry, looked up)": "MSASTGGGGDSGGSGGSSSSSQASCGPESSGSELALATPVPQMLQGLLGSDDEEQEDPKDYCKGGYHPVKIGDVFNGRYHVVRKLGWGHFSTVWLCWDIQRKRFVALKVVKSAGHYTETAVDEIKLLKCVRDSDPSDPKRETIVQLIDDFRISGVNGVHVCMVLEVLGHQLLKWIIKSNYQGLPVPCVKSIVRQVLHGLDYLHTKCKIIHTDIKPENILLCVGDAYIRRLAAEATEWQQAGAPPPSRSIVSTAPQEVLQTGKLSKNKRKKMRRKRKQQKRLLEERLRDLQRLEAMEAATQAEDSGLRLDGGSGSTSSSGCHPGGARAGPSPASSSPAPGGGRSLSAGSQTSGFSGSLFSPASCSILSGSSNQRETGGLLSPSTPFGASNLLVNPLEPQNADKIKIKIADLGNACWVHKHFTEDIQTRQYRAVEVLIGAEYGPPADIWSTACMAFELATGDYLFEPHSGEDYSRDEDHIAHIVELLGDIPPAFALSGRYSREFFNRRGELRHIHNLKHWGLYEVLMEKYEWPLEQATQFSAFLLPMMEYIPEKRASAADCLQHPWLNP", "sequence of UniProt Q9NTG7 (whole entry, looked up)": "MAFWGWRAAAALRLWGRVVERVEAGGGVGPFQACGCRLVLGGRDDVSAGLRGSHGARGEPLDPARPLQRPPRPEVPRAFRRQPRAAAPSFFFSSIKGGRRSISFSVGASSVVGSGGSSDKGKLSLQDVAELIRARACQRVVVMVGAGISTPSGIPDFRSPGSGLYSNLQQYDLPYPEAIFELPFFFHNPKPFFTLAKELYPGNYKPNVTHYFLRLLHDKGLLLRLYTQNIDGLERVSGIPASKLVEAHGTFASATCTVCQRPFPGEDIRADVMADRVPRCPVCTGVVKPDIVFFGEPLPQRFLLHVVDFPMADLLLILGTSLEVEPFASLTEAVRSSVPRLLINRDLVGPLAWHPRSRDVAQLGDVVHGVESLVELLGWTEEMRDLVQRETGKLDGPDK", "sequence of UniProt Q86X55 (whole entry, looked up)": "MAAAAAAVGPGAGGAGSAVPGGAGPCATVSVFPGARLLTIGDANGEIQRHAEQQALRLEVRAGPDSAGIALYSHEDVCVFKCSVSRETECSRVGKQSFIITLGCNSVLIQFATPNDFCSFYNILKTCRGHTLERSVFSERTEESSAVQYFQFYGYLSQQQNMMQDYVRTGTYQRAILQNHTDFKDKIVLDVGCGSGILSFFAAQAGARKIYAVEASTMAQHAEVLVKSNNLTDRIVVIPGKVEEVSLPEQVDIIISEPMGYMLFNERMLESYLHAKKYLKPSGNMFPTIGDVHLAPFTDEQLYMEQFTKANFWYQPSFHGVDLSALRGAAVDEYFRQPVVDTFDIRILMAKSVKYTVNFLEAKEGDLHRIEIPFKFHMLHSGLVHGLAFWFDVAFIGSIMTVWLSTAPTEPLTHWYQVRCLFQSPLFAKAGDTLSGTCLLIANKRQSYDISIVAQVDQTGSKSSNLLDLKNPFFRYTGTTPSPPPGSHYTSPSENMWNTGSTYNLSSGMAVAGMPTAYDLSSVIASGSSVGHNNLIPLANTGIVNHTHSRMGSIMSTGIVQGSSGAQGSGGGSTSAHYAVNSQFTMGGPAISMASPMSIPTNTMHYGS", "sequence of UniProt P05771 (whole entry, looked up)": "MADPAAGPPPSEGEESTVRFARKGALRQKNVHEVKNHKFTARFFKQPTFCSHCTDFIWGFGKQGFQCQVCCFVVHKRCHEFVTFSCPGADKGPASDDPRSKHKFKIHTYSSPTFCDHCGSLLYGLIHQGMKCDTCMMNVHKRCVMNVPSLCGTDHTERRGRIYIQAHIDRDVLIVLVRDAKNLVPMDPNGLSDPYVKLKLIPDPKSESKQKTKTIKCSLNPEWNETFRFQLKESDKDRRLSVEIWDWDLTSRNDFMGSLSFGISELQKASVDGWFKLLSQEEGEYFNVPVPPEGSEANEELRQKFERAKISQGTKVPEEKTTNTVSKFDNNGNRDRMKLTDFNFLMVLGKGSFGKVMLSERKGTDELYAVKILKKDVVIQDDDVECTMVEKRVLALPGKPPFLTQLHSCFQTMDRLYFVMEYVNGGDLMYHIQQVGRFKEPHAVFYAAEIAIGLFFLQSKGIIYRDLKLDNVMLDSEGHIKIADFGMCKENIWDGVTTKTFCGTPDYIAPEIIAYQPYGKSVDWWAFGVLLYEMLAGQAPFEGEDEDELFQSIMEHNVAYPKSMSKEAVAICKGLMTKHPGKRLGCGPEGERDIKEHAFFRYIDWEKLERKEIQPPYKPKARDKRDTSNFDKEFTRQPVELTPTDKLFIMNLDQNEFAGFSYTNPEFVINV", "sequence of UniProt Q9NZQ7 (whole entry, looked up)": "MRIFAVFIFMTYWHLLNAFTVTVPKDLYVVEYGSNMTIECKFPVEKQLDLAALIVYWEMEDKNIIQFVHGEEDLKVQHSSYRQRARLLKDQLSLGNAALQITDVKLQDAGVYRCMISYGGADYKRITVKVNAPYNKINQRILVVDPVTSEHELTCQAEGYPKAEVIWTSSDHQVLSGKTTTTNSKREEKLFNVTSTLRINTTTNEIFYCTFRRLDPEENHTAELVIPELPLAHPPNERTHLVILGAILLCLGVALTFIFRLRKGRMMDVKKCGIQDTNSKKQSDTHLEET", "sequence of UniProt Q96EB6 (whole entry, looked up)": "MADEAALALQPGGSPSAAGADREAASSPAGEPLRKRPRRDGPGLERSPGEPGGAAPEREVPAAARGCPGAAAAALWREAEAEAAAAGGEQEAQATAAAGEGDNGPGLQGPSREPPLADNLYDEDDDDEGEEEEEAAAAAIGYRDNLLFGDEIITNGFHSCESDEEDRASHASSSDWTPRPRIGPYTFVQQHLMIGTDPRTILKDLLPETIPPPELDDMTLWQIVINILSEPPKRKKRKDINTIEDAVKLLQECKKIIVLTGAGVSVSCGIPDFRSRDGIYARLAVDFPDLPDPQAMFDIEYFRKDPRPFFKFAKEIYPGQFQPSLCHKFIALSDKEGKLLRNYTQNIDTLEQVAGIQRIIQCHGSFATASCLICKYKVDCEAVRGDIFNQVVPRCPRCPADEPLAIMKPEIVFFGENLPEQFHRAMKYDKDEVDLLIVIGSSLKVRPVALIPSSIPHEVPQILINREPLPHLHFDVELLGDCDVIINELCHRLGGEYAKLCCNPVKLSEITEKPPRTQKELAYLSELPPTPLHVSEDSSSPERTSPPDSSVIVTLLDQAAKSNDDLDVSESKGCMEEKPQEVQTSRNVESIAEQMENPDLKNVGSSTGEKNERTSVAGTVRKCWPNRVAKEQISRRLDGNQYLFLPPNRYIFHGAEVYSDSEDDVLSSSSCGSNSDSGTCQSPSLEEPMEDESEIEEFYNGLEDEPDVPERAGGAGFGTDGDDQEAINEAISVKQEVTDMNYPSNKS", "sequence of UniProt P28566 (whole entry, looked up)": "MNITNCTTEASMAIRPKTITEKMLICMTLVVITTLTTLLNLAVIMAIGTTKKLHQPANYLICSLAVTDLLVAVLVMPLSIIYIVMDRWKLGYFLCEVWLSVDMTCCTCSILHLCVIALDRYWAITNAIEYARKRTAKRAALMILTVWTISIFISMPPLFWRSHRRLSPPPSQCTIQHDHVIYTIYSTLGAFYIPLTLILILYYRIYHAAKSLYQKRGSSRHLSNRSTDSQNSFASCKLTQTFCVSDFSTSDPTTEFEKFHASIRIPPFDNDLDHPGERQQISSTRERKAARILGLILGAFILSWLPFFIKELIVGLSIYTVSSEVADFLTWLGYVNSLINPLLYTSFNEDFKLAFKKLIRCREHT"}
{"Compound": "Cc1ccc(CNC(=O)C(CCc2ccccc2)NC(=O)C(NC(=O)Cc2cccc(Oc3ccccc3)c2)C(C)O)cc1 (centres unmarked)", "target": "F2", "test": "enzyme activity, inhibitor", "setting": "100 µM", "inhibition [%]": 17}
{"Compound": "CC(=O)N[C@@H](CCC(=O)O)C(=O)N[C@@H](Cc1ccccc1)C(=O)N[C@@H](Cc1c[nH]c2ccccc12)C(=O)N[C@@H](CO)C(=O)N[C@@H](Cc1c[nH]c2ccccc12)C(=O)N[C@@H](Cc1ccc(O)cc1)C(=O)N[C@@H](Cc1ccc(O)cc1)C(N)=O", "target": "Programmed cell death 1 ligand 1, with PD-1 (CD274, Homo sapiens, UniProt Q9NZQ7)", "test": "PD-1/PD-L1 binding, ELISA", "setting": "10 µM", "inhibition [%]": "17.6 ± 4.1"}
{"Compound": "Brc1ccccc1-c1nnc(CSc2nnnn2-c2ccccc2)o1", "target": "5-hydroxytryptamine receptor 1E (HTR1E, Homo sapiens, UniProt P28566)", "test": "ligand displacement, radioligand", "setting": "10 µM", "inhibition [%]": 16}
{"Compound": "O=C1c2sc(-c3ccc(N4CCC(CO)CC4)nc3F)nc2CCN1c1cccnc1", "target": "Vasopressin V2 receptor (AVPR2, Homo sapiens, UniProt P30518)", "test": "ligand displacement, radioligand", "setting": "1 µM", "inhibition [%]": 3}
{"Compound": "CCCCCCCCCCCCNC(=S)NCCCC[C@H](NC(C)=O)C(=O)N[C@H](C)C(=O)N[C@@H](CCCNC(=N)N)C(N)=O", "target": "NAD-dependent protein deacetylase sirtuin-3, mitochondrial (SIRT3, Homo sapiens, UniProt Q9NTG7)", "test": "enzyme activity, inhibitor", "setting": "10 µM", "inhibition [%]": 21}
{"Compound": "C=CS(=O)(=O)Nc1ccc2nc(NCCCCCN(C)C)nc(NCCCCCCN(C)C)c2c1", "target": "Histone-lysine N-methyltransferase SETDB1, triple Tudor domain (SETDB1, Homo sapiens, UniProt Q15047)", "setting": "100 µM", "inhibition [%]": 129}
{"Compound": "COc1c(Br)c(O)c2c(c1Br)OC(c1ccccc1)CC2=O (centres unmarked)", "target": "AMY2", "test": "enzyme activity, inhibitor", "setting": "50 µM, 30 min", "inhibition [%]": 17.6}
{"Compound": "Cc1cccc(O[C@H]2CCC[C@@H](C(C)CNCc3ccncc3)C2)c1 (relative stereo)", "target": "Protein kinase C beta type, isoform beta-II (PRKCB, Homo sapiens, UniProt P05771)", "test": "kinome profiling", "setting": "1 µM", "inhibition [%]": 1}
{"Compound": "CC1Cc2ccccc2N1C(=O)CN1CCN(Cc2ccccc2)CC1 (centres unmarked)", "target": "5-hydroxytryptamine receptor 1B (HTR1B, Homo sapiens, UniProt P28222)", "test": "radioligand binding", "setting": "concentration not given, together with: [3H]5-CT", "inhibition [%]": 6.6}
{"Compound": "C/C=C/C(=O)Nc1ccc2nc(NCCCCCN(C)C)nc(NCCCCCCN(C)C)c2c1", "target": "Histone-arginine methyltransferase CARM1 (CARM1, Homo sapiens, UniProt Q86X55)", "test": "enzyme activity, inhibitor, radiometric", "setting": "10 µM", "inhibition [%]": 57}
{"Compound": "O=C(Nc1ccc(C(F)F)cc1)[C@H](CC1CCCCC1)Nc1nn2c(=O)ccnc2s1", "target": "Dual specificity protein phosphatase 13B (DUSP13B, Homo sapiens, UniProt Q9UII6)", "test": "enzyme activity, inhibitor", "setting": "10 µM", "inhibition [%]": -3}
{"Compound": "Cc1ccc(N(O)/N=N/c2ccc(S(=O)(=O)Nc3nccs3)cc2)cc1", "target": "AMY2", "test": "enzyme activity, inhibitor", "setting": "180 µg/mL", "inhibition [%]": 26.3}
{"Compound": "C[Si](C)(C)C[C@H](CN)CC(=O)O", "target": "AMPA receptor, rat", "test": "binding, radioligand binding", "setting": "250 µM, together with: [3H]AMPA", "inhibition [%]": 5}
{"Compound": "C[C@H](NC(=O)[C@H](CC(=O)NCC(C)(C)C)NC(=O)C(=O)c1c[nH]c2ccccc12)C(=O)NCc1ccc(F)cc1F", "target": "F2", "test": "enzyme activity, inhibitor", "setting": "100 µM", "inhibition [%]": 30}
{"Compound": "CCCCCCCCCCCCNC(=S)NCCCC[C@H](NC(=O)OCc1ccccc1)C(=O)N[C@@H](Cc1c[nH]c2ccccc12)C(=O)N[C@@H](CC(C)C)C(N)=O", "target": "NAD-dependent protein deacetylase sirtuin-1 (SIRT1, Homo sapiens, UniProt Q96EB6)", "test": "enzyme activity, inhibitor", "setting": "10 µM", "inhibition [%]": "< 5"}
{"Compound": "COc1ccc(C[C@H](NC(=O)Cc2cccc(Oc3ccccc3)c2)C(=O)N[C@@H](Cc2c[nH]c3ccccc23)C(=O)NCc2ccc(C)cc2)cc1OC", "target": "F2", "test": "enzyme activity, inhibitor", "setting": "100 µM", "inhibition [%]": 21}
{"Compound": "COc1ccc(NC(=O)Nc2ccccc2)cc1", "target": "SRSF protein kinase 3 (SRPK3, Homo sapiens, UniProt Q9UPE1)", "test": "binding, KINOMEscan competitive binding", "setting": "concentration not given", "inhibition [%]": 51}
{"note": "For quick reference, copied from above:"}
{"Compound": "CCCCCCCCCCCCNC(=S)NCCCC[C@H](NC(C)=O)C(=O)N[C@H](C)C(=O)N[C@@H](CCCNC(=N)N)C(N)=O", "target": "NAD-dependent protein deacetylase sirtuin-3, mitochondrial (SIRT3, Homo sapiens, UniProt Q9NTG7)", "test": "enzyme activity, inhibitor", "setting": "10 µM", "inhibition [%]": 21}
{"Compound": "Cc1cccc(O[C@H]2CCC[C@@H](C(C)CNCc3ccncc3)C2)c1 (relative stereo)", "target": "Protein kinase C beta type, isoform beta-II (PRKCB, Homo sapiens, UniProt P05771)", "test": "kinome profiling", "setting": "1 µM", "inhibition [%]": 1}
